Measurements from different studies.
Each numbered part is a random draw from the data of one study; scales do not carry over between parts. Changes are numbered by the printed parent chain.

Series 1 — target: UBE2W UBC core domain (UniProt Q96B02); technique: yeast two-hybrid; sample: yeast; notes: mostly zero background; relative to: not given; reading: higher = stronger interaction; measurement: lacZ reporter activity
Chain of UniProt Q96B02 (whole entry, looked up): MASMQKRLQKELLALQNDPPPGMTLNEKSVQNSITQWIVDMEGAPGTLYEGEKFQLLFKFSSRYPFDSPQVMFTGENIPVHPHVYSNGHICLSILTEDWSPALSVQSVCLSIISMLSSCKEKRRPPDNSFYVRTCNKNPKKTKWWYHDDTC
B1: RNF133 RING domain (UniProt Q8WVZ7); chain DEEINPNGDSCVICFERYKPNDIVRILTCKHFFHKNCIDPWILPHGTCPICKCDILKVLGIQ
B2: DZIP3 RING domain (UniProt Q86Y13); chain PDEEEEEEEPCVICHENLSPENLSVLPCAHKFHAQCIRPWLMQQGTCPTCRLHVLLPEEFP
B3: DTX2 RING domain (UniProt Q86UW9); chain EELKVPPDEDCIICMEKLSTASGYSDVTDSKAIGSLAVGHLTKCSHAFHLLCLLAMYCNGNKDGSLQCPSCKTIYGEKTGTQ
B4: TRIM62 RING domain (UniProt Q9BVG3); chain MACSLKDELLCSICLSIYQDPVSLGCEHYFCRRCITEHWVRQEAQGARDCPECRRTFAEPALAP
B5: RNF19A RING domain (UniProt Q9NV58); chain ISKQIGDFIECPLCLLRHSKDRFPDIMTCHHRSCVDCLRQYLRIEISESRVNISCPECTERFNPHDIR
B6: MDM4 RING domain (UniProt O15151); chain MEDCQNLLKPCSLCEKRPRDGNIIHGRTGHLVTCFHCARRLKKAGASCPICKKEIQLVIKVF
B7: ZMIZ2 RING domain (UniProt Q8NF64); chain GTIPGTPGPNGEDGVEQTAIKVSLKCPITFRRIQLPARGHDCRHIQCFDLESYLQLNCERGTWRCPVCNKTALLEGLEVDQYMLGILIYIQNSDYEEITIDPTCSWK
B8: RBCK1 RING domain (UniProt Q9BYM8); chain SLVLNTEPAECPVCYSVLAPGEAVVLRECLHTFCRECLQGTIRNSQEAEVSCPFIDNTYSCSGKLLEREIK
B9: RNF121 RING domain (UniProt Q9H920); chain MPTKHLSDSVCAVCGQQIFVDVSEEGIIENTYRLSCNHVFHEFCIRGWCIVGKKQTCPYCKEKVDLKRMFS
B1 (RNF133 RING domain): 2310
B2 (DZIP3 RING domain): 0
B3 (DTX2 RING domain): 0
B4 (TRIM62 RING domain): 0
B5 (RNF19A RING domain): 0
YQNEVDDDLVCHICLQPLLQPLDTPCGHTFCYKCLRNFLQEKDFCPLDRKRLHFKLCKK (LNX2 RING domain (UniProt Q8N448)): 0
B6 (MDM4 RING domain): 0
B7 (ZMIZ2 RING domain): 0
B8 (RBCK1 RING domain): 0
B9 (RNF121 RING domain): 0
AMYLQENGIDCPKCKFSYALARGGCMHFHCTQCRHQFCSGCYNAFYAKNKC (RNF31 RING domain (UniProt Q96EP0)): 0

Series 2 — target: CCNB1, cyclin fold, Cln2 fusion (human); technique: yeast growth competition, sequencing; sample: yeast; notes: strong parent motif; relative to: not given; reading: higher = stronger binding; measurement: normalised enrichment score
Starting sequence: viral docking peptide; KGVKRKLFAEDSS; partner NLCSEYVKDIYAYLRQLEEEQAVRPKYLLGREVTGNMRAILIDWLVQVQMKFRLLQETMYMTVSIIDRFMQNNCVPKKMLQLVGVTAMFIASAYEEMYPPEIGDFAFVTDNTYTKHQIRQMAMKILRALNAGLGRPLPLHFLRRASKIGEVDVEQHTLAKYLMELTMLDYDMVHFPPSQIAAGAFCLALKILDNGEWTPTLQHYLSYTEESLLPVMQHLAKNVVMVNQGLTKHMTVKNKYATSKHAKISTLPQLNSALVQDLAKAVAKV
KGVKRKLFMEDSS [A9M]: 2.03
KGVKRKLFAEGSS [D11G]: 1.6
KGVKRKLFAEDRS [S12R]: 1.59
KGVKRKQFAEDSS [L7Q]: 0.268
KGVKRKLFNEDSS [A9N]: 1.77
KGVKHKLFAEDSS [R5H]: 0.262

Series 3 — technique: RNA Bind-n-Seq; molecule type: RNA; sample: in vitro; tested at: 1 µM; notes: whole 134-nt RNA, ends assumed; together with: 150 mM KCl; relative to: input library; reading: higher = stronger binding; measurement: log2 enrichment
Target: Ras GTPase-activating protein-binding protein 1, RRM domain (G3BP1, Homo sapiens, UniProt Q13283)
Chain of UniProt Q13283 (whole entry, looked up): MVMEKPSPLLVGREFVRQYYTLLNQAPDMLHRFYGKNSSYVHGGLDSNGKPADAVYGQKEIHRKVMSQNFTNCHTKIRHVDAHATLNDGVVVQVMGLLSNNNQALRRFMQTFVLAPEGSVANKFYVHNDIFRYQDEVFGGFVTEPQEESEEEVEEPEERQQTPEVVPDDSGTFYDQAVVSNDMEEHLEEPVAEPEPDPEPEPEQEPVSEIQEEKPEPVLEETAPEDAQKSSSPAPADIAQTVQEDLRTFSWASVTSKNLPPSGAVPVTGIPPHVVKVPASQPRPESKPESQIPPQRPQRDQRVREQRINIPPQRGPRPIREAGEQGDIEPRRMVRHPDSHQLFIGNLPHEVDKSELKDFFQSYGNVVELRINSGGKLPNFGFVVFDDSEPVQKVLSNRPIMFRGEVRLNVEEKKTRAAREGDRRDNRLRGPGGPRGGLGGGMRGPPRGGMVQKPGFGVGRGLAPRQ
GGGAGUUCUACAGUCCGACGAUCGUCCUGUGCUACACAUCGUAUGUACCGAAUCGGGGUGGGGUUUUUUUGGGGUUUGGGGAAAGUAUUAUGUUACGCCGUUCGGAUCUGCACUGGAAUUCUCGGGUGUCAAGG: 0.674
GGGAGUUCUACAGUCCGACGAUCACCAUGCAGGUGGGCAUCUUUGGGAAGUGGGGCAAGGGGGGGAUAGGUAGGGGGGUAACACUUUGGGAACAGGUGGUCCCAGGUCGUUUCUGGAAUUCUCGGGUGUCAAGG: 0.935
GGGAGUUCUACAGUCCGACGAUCUAACUUUAGAGGAGGAUCUGAUGGAUAUGGCAGUGGACGUGGAUUUGGGGAUGGCUAUAAUGGGUAUGGAGGAGAACCUGGAGGUGGCAAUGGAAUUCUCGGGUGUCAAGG: -0.424
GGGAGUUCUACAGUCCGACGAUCCCUCAAGUCCUGUGCUACACAUCGUAUGUACCGAAUCGGUUGGUUGGGUUGGAAAGUAUUAUGUUACGCCGUUCGGAUCUGCACUUCCAGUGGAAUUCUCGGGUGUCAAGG: -0.256
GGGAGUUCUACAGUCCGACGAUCGGUGCGGCUCUAUGAGUGGACAACAGAGAAGGAGCUGCGCACUGAGUGCAACCACUACAACAACAUCAUGGCCCUCUACCUGAAGACCAAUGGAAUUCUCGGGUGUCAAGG: -0.125
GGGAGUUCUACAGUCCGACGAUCAGUCCUGUGCUACACAUCGUAUGUACCGAAUCGGGGCCCCGGGGCCCCGGGCCCCGGGAAAGUAUUAUGUUACGCCGUUCGGAUCUGCACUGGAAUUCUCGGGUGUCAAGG: -1.34
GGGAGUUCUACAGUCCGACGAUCGUCCUGUGCUACACAUCGUAUGUACCGAAUCGGCCCCCGGGGCCCCCGGGCCCCCGGGGAAAGUAUUAUGUUACGCCGUUCGGAUCUGCAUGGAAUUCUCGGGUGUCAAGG: -0.618
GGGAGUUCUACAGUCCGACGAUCGUCCUGUGCUACACAUCGUAUGUACCGAAUCGGAAAAAGGUUUUUUUGGUUUUUUUGGAAAGUAUUAUGUUACGCCGUUCGGAUCUGCACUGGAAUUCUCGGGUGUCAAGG: -0.458

Series 4 — effect on: peptide-MHC binding; molecule type: peptide; tested at: concentration not given; measurement: binding
Target: HLA class I histocompatibility antigen, A alpha chain, allele A*80:01 (Homo sapiens, UniProt P04439)
HQIWLALRY: active
GRGPIRFVL: inactive
RRELSKEKL: inactive
NAMGADYYA: inactive

Repeated from above (series 2):
KGVKRKLFAEGSS [D11G]: 1.6
KGVKRKLFAEDRS [S12R]: 1.59
KGVKRKQFAEDSS [L7Q]: 0.268
KGVKRKLFNEDSS [A9N]: 1.77
KGVKHKLFAEDSS [R5H]: 0.262
